# Assay results of several laboratories.
# Compare with care: the assays were run in different laboratories.
# Cell line: HepG2
Compound,assay,conditions,how to read,inhibition
CCNC(=S)N/N=C(\C)c1ccccn1,"cell growth or viability, SRB","100 µg/mL, 48 h",,61%
Cc1cc(CN2CCC(CCCCCCC(=O)NO)CC2)cc(C)c1-c1ncn(C)c1-c1ccc(C#N)c2ccccc12,"cell growth or viability, MTT","0.6 µM, 72 h",,> 90%
O=C(COc1ccccc1/C=N/Nc1nc(-c2ccc(Cl)cc2)cs1)N1CCN(C(=O)COc2ccccc2/C=N/Nc2nc(-c3ccc(Cl)cc3)cs2)CC1,"cell growth or viability, SRB","100 µM, 48 h",,71.2%
CC(=O)O[C@@H]1CC[C@@]2(C)C(CC[C@]3(C)C2C(=O)C=C2C4[C@@H](C)[C@H](C)CC[C@]4(C)CC[C@]23C)[C@@]1(C)C(=O)OCC(=O)Oc1cc(C)ccc1C(C)C (stereo partly shown),"IL-1β production, ELISA, measured: IL-1β","10 µM, with: acetaminophen 10 mM",reference: acetaminophen-treated cells,~52%
CC(C)(C)c1cc2c(O)c(c1)Cc1cc(C(C)(C)C)cc(c1OCC(=O)NCc1ccncc1)Cc1cc(C(C)(C)C)cc(c1O)Cc1cc(C(C)(C)C)cc(c1OCC(=O)NCc1ccncc1)COC2,"cell growth or viability, MTT","15 µM, 72 h",,66%
O=C(COc1ccc(/C=N/Nc2nc(-c3ccc(Cl)cc3)cs2)cc1)N1CCN(C(=O)COc2ccc(/C=N/Nc3nc(-c4ccc(Cl)cc4)cs3)cc2)CC1,"cell growth or viability, SRB","100 µM, 48 h",,42.6%
CC1(C)[C@@H](O)CC[C@]2(C)[C@H]3C(=O)C=C4[C@@H]5C[C@@](C)(C(=O)O)CC[C@]5(C)CC[C@@]4(C)[C@]3(C)CC[C@@H]12,"cell growth or viability, MTT",20 µg/mL,,10.7%
CC(C)(C)c1cc2c(O)c(c1)Cc1cc(C(C)(C)C)cc(c1OCC(=O)Nc1cccc3cccnc13)Cc1cc(C(C)(C)C)cc(c1O)Cc1cc(C(C)(C)C)cc(c1OCC(=O)Nc1cccc3cccnc13)COC2,"cell growth or viability, MTT","15 µM, 72 h",,26%
CC(=O)O[C@@H]1CC[C@@]2(C)C(CC[C@]3(C)C2C(=O)C=C2C4[C@@H](C)[C@H](C)CC[C@]4(C)CC[C@]23C)[C@@]1(C)C(=O)N/N=C1/C(=O)Nc2ccccc21 (stereo partly shown),"TNF-α production, ELISA, measured: TNF-α","10 µM, with: acetaminophen 10 mM",reference: acetaminophen-treated cells,~54%
CC(C)(C)c1cc2c(O)c(c1)Cc1cc(C(C)(C)C)cc(c1OCC(=O)NCc1cccnc1)Cc1cc(C(C)(C)C)cc(c1O)Cc1cc(C(C)(C)C)cc(c1OCC(=O)NCc1cccnc1)COC2,"cell growth or viability, MTT","15 µM, 72 h",,94%
CCOC(=O)C/C(C)=N/NC(=O)c1nc2ccccc2n(C)c1=O,"cell growth or viability, MTT",10 µM,,94.6%
CC1(C)C2CC[C@]3(C)[C@H](C(=O)C=C4[C@@H]5C[C@@](C)(C(=O)N6CCN(C(=O)Cc7ccc(Cl)cc7)CC6)CC[C@]5(C)CC[C@]43C)[C@@]2(C)CC[C@@H]1OC(=O)Cc1ccc(Cl)cc1 (stereo partly shown),"cell growth or viability, MTT",2 µg/mL,,0%
CC(C)(C)c1cc2c(O)c(c1)Cc1cc(C(C)(C)C)cc(c1OCC(=O)Nc1ccccn1)Cc1cc(C(C)(C)C)cc(c1O)Cc1cc(C(C)(C)C)cc(c1OCC(=O)Nc1ccccn1)COC2,"cell growth or viability, MTT","15 µM, 72 h",,26%

# Some of these lines once more:
Compound,assay,conditions,how to read,inhibition
CC(=O)O[C@@H]1CC[C@@]2(C)C(CC[C@]3(C)C2C(=O)C=C2C4[C@@H](C)[C@H](C)CC[C@]4(C)CC[C@]23C)[C@@]1(C)C(=O)OCC(=O)Oc1cc(C)ccc1C(C)C (stereo partly shown),"IL-1β production, ELISA, measured: IL-1β","10 µM, with: acetaminophen 10 mM",reference: acetaminophen-treated cells,~52%
